Published values from different studies.
A part holds a random share of what one study measured.
Chain of UniProt Q8WU08 (whole entry, looked up): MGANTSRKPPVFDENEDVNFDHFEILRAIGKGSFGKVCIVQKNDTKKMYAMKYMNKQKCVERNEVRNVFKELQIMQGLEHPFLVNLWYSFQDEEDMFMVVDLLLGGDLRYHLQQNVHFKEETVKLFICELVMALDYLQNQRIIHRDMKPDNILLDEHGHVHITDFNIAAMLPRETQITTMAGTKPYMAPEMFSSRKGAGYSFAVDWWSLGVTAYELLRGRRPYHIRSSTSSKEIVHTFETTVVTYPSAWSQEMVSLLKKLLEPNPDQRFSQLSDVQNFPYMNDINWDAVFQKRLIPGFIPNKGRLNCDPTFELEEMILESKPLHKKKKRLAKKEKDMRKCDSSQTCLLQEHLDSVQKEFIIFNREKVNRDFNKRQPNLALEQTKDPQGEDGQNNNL
Chain of UniProt Q8NEB9 (whole entry, looked up): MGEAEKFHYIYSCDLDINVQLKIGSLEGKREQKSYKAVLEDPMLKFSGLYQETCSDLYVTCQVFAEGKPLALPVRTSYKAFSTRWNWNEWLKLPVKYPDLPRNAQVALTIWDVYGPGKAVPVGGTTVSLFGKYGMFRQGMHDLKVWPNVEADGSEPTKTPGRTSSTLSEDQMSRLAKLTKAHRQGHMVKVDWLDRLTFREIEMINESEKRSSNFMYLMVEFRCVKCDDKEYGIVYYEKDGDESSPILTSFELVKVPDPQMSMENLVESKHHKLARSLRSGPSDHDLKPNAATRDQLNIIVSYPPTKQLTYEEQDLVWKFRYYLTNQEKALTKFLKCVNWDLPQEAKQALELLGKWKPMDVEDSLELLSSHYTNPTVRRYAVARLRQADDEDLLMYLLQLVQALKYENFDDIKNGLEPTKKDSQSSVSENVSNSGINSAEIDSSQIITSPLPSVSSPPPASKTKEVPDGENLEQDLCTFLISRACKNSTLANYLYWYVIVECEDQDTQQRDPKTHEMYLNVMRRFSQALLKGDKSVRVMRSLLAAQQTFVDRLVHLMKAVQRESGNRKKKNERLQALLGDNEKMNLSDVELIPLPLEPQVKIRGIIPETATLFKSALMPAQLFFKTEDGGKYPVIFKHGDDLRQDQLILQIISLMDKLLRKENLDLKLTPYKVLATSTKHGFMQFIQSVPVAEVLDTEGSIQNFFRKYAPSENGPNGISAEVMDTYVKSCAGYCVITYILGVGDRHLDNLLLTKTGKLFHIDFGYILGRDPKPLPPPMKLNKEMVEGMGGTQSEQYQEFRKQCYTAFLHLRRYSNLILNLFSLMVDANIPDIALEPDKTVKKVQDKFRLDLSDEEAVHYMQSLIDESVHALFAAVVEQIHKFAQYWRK
Chain of UniProt Q8NEV4 (whole entry, looked up): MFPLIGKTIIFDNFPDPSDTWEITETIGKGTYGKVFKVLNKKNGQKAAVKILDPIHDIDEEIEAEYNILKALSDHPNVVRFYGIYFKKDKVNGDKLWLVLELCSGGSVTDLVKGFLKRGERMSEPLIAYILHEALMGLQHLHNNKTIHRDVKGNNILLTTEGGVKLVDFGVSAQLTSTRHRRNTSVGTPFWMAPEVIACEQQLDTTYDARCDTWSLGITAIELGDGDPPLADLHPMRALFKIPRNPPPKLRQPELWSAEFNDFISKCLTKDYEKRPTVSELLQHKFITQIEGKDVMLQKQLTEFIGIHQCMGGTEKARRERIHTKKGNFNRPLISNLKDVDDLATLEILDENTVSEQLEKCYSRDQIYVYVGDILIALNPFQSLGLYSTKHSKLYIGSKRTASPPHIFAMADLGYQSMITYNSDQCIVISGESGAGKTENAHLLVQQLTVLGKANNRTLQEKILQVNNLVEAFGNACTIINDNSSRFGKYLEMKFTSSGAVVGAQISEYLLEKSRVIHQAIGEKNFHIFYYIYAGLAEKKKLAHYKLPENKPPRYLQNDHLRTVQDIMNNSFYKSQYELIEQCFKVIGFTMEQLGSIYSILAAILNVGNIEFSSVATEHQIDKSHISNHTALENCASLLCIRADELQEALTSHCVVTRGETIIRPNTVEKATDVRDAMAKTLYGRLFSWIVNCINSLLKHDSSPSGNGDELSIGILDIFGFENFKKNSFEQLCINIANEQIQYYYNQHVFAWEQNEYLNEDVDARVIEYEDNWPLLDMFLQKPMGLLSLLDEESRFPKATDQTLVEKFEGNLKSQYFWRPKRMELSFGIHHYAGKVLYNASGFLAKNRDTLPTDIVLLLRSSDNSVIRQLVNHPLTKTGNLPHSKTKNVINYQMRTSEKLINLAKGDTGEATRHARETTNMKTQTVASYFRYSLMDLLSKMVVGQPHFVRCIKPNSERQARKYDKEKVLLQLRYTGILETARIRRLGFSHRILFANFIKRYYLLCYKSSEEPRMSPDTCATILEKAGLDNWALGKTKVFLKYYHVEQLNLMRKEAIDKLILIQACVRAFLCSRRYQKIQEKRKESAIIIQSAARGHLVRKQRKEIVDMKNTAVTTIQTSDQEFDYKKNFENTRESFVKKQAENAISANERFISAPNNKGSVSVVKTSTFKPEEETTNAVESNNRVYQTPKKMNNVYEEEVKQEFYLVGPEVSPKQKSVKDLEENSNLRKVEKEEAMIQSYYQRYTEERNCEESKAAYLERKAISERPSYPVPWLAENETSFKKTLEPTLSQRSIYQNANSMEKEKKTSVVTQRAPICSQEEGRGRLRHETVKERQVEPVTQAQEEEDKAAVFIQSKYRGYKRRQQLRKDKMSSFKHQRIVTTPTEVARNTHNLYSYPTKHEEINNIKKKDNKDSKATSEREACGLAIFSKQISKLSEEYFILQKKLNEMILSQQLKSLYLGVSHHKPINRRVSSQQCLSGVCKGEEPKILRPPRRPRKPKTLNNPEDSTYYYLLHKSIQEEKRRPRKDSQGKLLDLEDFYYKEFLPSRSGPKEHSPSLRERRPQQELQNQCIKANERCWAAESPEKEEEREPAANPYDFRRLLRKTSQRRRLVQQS

Sample 1
Target: Serine/threonine-protein kinase PAK 6 (PAK6, Homo sapiens, UniProt Q9NQU5)
Chain of UniProt Q9NQU5 (whole entry, looked up): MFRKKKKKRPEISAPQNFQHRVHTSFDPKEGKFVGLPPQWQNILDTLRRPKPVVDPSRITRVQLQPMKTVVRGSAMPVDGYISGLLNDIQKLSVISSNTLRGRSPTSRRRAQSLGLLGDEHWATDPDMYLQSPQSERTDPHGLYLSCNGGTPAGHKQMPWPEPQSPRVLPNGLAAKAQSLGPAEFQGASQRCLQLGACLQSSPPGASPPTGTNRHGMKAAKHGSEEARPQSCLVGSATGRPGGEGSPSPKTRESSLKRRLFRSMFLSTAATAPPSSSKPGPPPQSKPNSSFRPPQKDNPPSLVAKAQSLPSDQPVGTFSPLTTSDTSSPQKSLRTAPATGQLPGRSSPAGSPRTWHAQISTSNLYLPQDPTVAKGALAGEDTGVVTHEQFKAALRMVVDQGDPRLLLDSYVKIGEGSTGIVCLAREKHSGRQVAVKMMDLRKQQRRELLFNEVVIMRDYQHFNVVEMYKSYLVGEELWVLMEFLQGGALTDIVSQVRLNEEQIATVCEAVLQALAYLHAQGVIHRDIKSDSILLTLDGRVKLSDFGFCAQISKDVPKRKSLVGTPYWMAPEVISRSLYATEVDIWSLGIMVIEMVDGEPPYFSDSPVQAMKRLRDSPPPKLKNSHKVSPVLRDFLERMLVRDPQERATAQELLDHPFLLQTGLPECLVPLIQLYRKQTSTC
Read-out: enzyme activity
Action: inhibitor
Tested at: 0.5 µM
Baseline: control
With `N#CC(c1ccnc(NCCc2cccnc2)n1)c1nc2ccccc2s1` (stereo not shown) the remaining activity was 97.6%.
The remaining activity of `NC(=O)c1cccc(-c2cc(Nc3ccc(OC(F)(F)F)cc3)ncn2)c1` is reported as 102%.
`O=C(c1ccccc1)c1ccc(N2CCOCC2)cc1O` has a remaining activity of 93.6%.
With `C[C@@H](N)[C@H]1CC[C@H](C(=O)Nc2ccncc2)CC1` the remaining activity was 92.9%.
`O=C(O)/C=C/c1cc(Br)c(Br)c(Br)c1Br` has a remaining activity of 110%.
For `O=c1c(-c2ccc(F)cc2)c(-c2ccncc2)[nH]n1-c1ccc(Cl)cc1`, the remaining activity was 73.5%.
The remaining activity of `CC(C)(C)c1nc2c3cc[nH]c(=O)c3c3cc(F)ccc3c2[nH]1` is reported as 90.9%.
`CNc1cc2c(Nc3cccc(Br)c3)ncnc2cn1` has a remaining activity of 96.6%.
For `N#C/C(=C(/N)SC1C=CC=CC1)c1cccc(C(O)c2ccncc2)c1` (stereo not shown), the remaining activity was 101%.
`O=Nc1c(-c2c(O)[nH]c3ccccc23)[nH]c2ccccc12` gave a remaining activity of 94.4%.
`CCCCc1c(-c2ccc(O)cc2)[nH]c2nccnc12` has a remaining activity of 94.3%.
The remaining activity of `O=C1c2ccccc2-c2nc3nnnn3nc21` is reported as 108%.
The remaining activity of `CCN(CC)CCCCN1c2ccccc2Oc2ccc(Cl)cc21` is reported as 102%.
`c1cc(-c2cnn3cc(-c4ccc(OCCN5CCCCC5)cc4)cnc23)ccn1` gave a remaining activity of 94.2%.
`COc1cc2c(Nc3ccc(Br)cc3F)ncnc2cc1OCC1CCN(C)CC1` has a remaining activity of 105%.
With `Nc1nc(Nc2ccc(S(N)(=O)=O)cc2)nn1C(=S)Nc1c(F)cccc1F` the remaining activity was 81.9%.
For `COc1cc2c(N3CCN(C(=O)Nc4ccc(OC(C)C)cc4)CC3)ncnc2cc1OCCCN1CCCCC1`, the remaining activity was 101%.
The remaining activity of `Clc1ccc(Nc2nnc(Cc3ccncc3)c3ccccc23)cc1` is reported as 107%.
The remaining activity of `NC(=O)c1ccc(-c2nc(-c3ccc4c(c3)OCCO4)c(-c3ccccn3)[nH]2)cc1` is reported as 98.2%.
The remaining activity of `FC(F)(F)c1ccc(/C=C/c2nc(COc3ccc(CCCCn4ccnn4)cc3)co2)cc1` is reported as 100%.
`O=C1NC(=O)/C(=C/c2ccc3c(c2)OC(F)(F)O3)S1` gave a remaining activity of 103%.
`CC(C)N(CCC(=O)c1ccc2ccccc2c1)Cc1ccccc1` gave a remaining activity of 116%.

Sample 2
Species: mouse
Sample: microsomes or S9
Tested at: 2 µM
Time: 0.5 h
For `O=S(=O)(Cc1ccccc1)N1CC[C@H](c2ccccc2)[C@H]2NCCCC[C@H]21`, the remaining compound was 0.861%.
`O=c1c(I)coc2cc(OC3CCCCO3)ccc12` (stereo not shown) has a remaining compound of 62.9%.
`O=C(CN1C(=O)c2ccccc2N2C(=O)c3ccccc3C12)Nc1ccncc1` (stereo not shown) gave a remaining compound of 84%.
For `Cc1cccc(NC2=CC(c3cccs3)N(c3cccc(C)c3)C2=O)c1` (stereo not shown), the remaining compound was 20.8%.
`Cc1nc2c(c3c(n2CC2CCO2)CCCC3)c(-c2ccc(Cl)cc2)c1[C@H](OC(C)(C)C)C(=O)O` (stereo partly shown) has a remaining compound of 29.5%.
With `O=C(Cn1nc2n(CCc3ccccc3)c(=O)c3ccccc3n2c1=O)Nc1ccc2c(c1)OCO2` the remaining compound was 28.3%.
`COc1cc(C2N=C(N3CCc4ccccc43)N=C3NC(C)=CC(=O)N32)ccc1O` (stereo not shown) gave a remaining compound of 28.1%.
`O=S(=O)(c1ccc2c(c1)OCCO2)n1cnc2ccccc21` gave a remaining compound of 0.406%.
For `COc1ccc(CN2CCC(C(=O)N3CCN(c4cccc(C)c4C)CC3)CC2)c(OC)c1`, the remaining compound was 20.3%.
For `CCOC(=O)c1c(=O)n(-c2ccccc2)nc2cc(C(C)=O)ccc12`, the remaining compound was 63.8%.
With `CC(C)c1noc(CCCn2ccc(-c3ccc(-c4nnn[nH]4)cc3)n2)n1` the remaining compound was 79.9%.
`c1nc(N2CCCC2)sc1CN1CC[C@H]2OCc3cnnn3[C@H]2C1` has a remaining compound of 80.4%.
`CCOc1ccc(S(=O)(=O)N2CCC3(CC2)Nc2ccccc2-n2cccc23)cc1` gave a remaining compound of 0.303%.
For `Cc1ccc(C(O)(c2ccccc2)c2cnc(C(C)C)n2C)cc1` (stereo not shown), the remaining compound was 2.08%.
The remaining compound of `CCOC(=O)Cc1cc(=O)n2nc(-c3ccccc3)c(-c3ccccc3)c2[nH]1` is reported as 51.1%.
`CCOC(=O)c1c(-c2ccccc2)noc1-c1c[nH]nn1` has a remaining compound of 99%.

Sample 3
Target: Calcium/calmodulin-dependent protein kinase type II subunit alpha (CAMK2A, Homo sapiens, UniProt Q9UQM7)
Chain of UniProt Q9UQM7 (whole entry, looked up): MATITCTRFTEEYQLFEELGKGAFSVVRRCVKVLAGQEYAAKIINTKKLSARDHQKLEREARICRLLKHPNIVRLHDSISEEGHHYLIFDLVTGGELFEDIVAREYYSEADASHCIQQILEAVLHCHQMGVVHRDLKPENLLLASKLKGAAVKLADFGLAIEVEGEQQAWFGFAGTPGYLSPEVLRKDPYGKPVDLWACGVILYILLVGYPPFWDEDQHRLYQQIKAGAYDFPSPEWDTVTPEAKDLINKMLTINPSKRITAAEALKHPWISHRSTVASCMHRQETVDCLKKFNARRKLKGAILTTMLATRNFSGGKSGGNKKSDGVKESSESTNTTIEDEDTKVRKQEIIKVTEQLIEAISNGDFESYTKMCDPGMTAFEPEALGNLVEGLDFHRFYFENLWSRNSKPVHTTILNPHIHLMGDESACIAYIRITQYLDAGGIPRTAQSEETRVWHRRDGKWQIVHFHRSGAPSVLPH
Read-out: enzyme activity
Action: inhibitor
Tested at: 10 µM
With `CC(=O)OC/C=C(C)/C=C/C=C(C)/C=C/C1=C(C)CCCC1(C)C` the inhibition was -1%.
For `CSCC[C@H](NC(=O)[C@H](Cc1c[nH]c2ccccc12)NC(=O)CCNC(=O)OC(C)(C)C)C(=O)N[C@@H](CC(=O)O)C(=O)N[C@@H](Cc1ccccc1)C(N)=O`, the inhibition was -4%.
`O=C1C=CCO1` has an inhibition of -4%.
With `O=c1cc(-c2ccc(O)c(-c3c(O)cc(O)c4c(=O)cc(-c5ccc(O)cc5)oc34)c2)oc2cc(O)cc(O)c12` the inhibition was -146%.
`C1CNCCNCCNCCN1` gave an inhibition of 0%.
With `COc1cc(C(C)=O)cc(OC)c1O` the inhibition was -79%.
With `CC(=O)c1ccc(O)cc1O` the inhibition was 8%.
For `CC(C)=CCC[C@@](C)(O)[C@H]1CC[C@]2(C)[C@@H]1[C@H](O)C[C@@H]1[C@@]3(C)CC[C@H](O[C@@H]4O[C@H](CO)[C@@H](O)[C@H](O)[C@H]4O[C@@H]4O[C@H](CO)[C@@H](O)[C@H](O)[C@H]4O)C(C)(C)[C@@H]3CC[C@]12C`, the inhibition was -32%.
`Clc1ccc2c(c1)C(N1CCNCC1)=Nc1ccccc1O2` has an inhibition of -10%.
`C=C1CCC[C@]2(C)C=C3OC(=O)C(C)=C3C[C@@H]12` gave an inhibition of -4%.
The inhibition of `O[C@H](c1ccccc1)[C@H](O)c1ccccc1` is reported as -28%.
For `O=C1CN(/N=C/c2ccc([N+](=O)[O-])o2)C(=O)N1`, the inhibition was -14%.
`COc1ccc(-c2cc(=O)c3c(OC)c(OC)c(OC)c(OC)c3o2)cc1` has an inhibition of -38%.

Sample 4
SMILES: CN(C)C(=O)Cn1cc(-c2nc(C3(c4ccc(-c5cnc(N)nc5)cc4)CC3)no2)cn1
Tested at: 1 µM
For WEE2 (Homo sapiens, UniProt P0C1S8); cell-free assay, competition with immobilised ligand: remaining binding read 99%.
CAMK1 (Homo sapiens, UniProt Q14012); cell-free assay, competition with immobilised ligand — remaining binding: 100%.
STK32A (Homo sapiens, UniProt Q8WU08); cell-free assay, competition with immobilised ligand — remaining binding: 97%.
The remaining binding was 100% (Myosin-IIIb (MYO3B, Homo sapiens, UniProt Q8WXR4); binding, competition with immobilised ligand).
SIK1 (Homo sapiens, UniProt P57059); competition binding — remaining binding: 86%.
For PIK3C3 (Homo sapiens, UniProt Q8NEB9); cell-free assay, competition with immobilised ligand: remaining binding read 96%.
GAK (Homo sapiens, UniProt O14976); cell-free assay, competition with immobilised ligand — remaining binding: 100%.
For MKNK1 (Homo sapiens, UniProt Q9BUB5); cell-free assay, competition with immobilised ligand: remaining binding read 85%.
It gave 100% for remaining binding (FLT1 (Homo sapiens, UniProt P17948); cell-free assay, competition with immobilised ligand).
For Tyrosine-protein kinase ABL1, phosphorylated (ABL1, Homo sapiens, UniProt P00519); cell-free assay, competition with immobilised ligand: remaining binding read 100%.
For STK39 (Homo sapiens, UniProt Q9UEW8); cell-free assay, competition with immobilised ligand: remaining binding read 100%.
Cyclin-dependent kinase 4, with cyclin D3 (CDK4, Homo sapiens, UniProt P11802); cell-free assay, competition with immobilised ligand — remaining binding: 100%.
TNNI3K (Homo sapiens, UniProt Q59H18); cell-free assay, competition with immobilised ligand — remaining binding: 100%.
FLT3 (Homo sapiens, UniProt P36888, ITD); cell-free assay, competition with immobilised ligand — remaining binding: 100%.
LTK (Homo sapiens, UniProt P29376); cell-free assay, competition with immobilised ligand — remaining binding: 90%.
It gave 90% for remaining binding (FLT3 (Homo sapiens, UniProt P36888); cell-free assay, competition with immobilised ligand).
The remaining binding was 96% (IRAK3 (Homo sapiens, UniProt Q9Y616); cell-free assay, competition with immobilised ligand).
CAMK4 (Homo sapiens, UniProt Q16566); cell-free assay, competition with immobilised ligand — remaining binding: 100%.
The remaining binding was 70% (RIPK4 (Homo sapiens, UniProt P57078); cell-free assay, competition with immobilised ligand).
For PIP4K2B (Homo sapiens, UniProt P78356); cell-free assay, competition with immobilised ligand: remaining binding read 71%.
The remaining binding was 100% (NEK7 (Homo sapiens, UniProt Q8TDX7); cell-free assay, competition with immobilised ligand).
Myosin-IIIa (MYO3A, Homo sapiens, UniProt Q8NEV4); binding, competition with immobilised ligand — remaining binding: 100%.
CDK15 (Homo sapiens, UniProt Q96Q40); cell-free assay, competition with immobilised ligand — remaining binding: 100%.
For Tyrosine-protein kinase ABL1, phosphorylated (ABL1, Homo sapiens, UniProt P00519, Y253F); cell-free assay, competition with immobilised ligand: remaining binding read 98%.
For EGFR (Homo sapiens, UniProt P00533, del747-752/P753S); cell-free assay, competition with immobilised ligand: remaining binding read 79%.

Excerpt of the above (sample 4):
For EGFR (Homo sapiens, UniProt P00533, del747-752/P753S); cell-free assay, competition with immobilised ligand: remaining binding read 79%.
SIK1 (Homo sapiens, UniProt P57059); competition binding — remaining binding: 86%.
For MKNK1 (Homo sapiens, UniProt Q9BUB5); cell-free assay, competition with immobilised ligand: remaining binding read 85%.
For WEE2 (Homo sapiens, UniProt P0C1S8); cell-free assay, competition with immobilised ligand: remaining binding read 99%.
CAMK4 (Homo sapiens, UniProt Q16566); cell-free assay, competition with immobilised ligand — remaining binding: 100%.
For PIK3C3 (Homo sapiens, UniProt Q8NEB9); cell-free assay, competition with immobilised ligand: remaining binding read 96%.
The remaining binding was 100% (NEK7 (Homo sapiens, UniProt Q8TDX7); cell-free assay, competition with immobilised ligand).
It gave 90% for remaining binding (FLT3 (Homo sapiens, UniProt P36888); cell-free assay, competition with immobilised ligand).
For Tyrosine-protein kinase ABL1, phosphorylated (ABL1, Homo sapiens, UniProt P00519); cell-free assay, competition with immobilised ligand: remaining binding read 100%.
The remaining binding was 96% (IRAK3 (Homo sapiens, UniProt Q9Y616); cell-free assay, competition with immobilised ligand).
